Experimental data from different studies.
Several values in a cell are separate wells, animals, samples, runs or records. ± gives the spread as reported.
ZBTB11/CRBN: ZBTB11/CRBN (Homo sapiens, UniProt O95625+Q96SW2)

`O=S(=O)(O)C1CCNCC1`: “normalised MST signal” 0.0425 (Sodium- and chloride-dependent taurine transporter (SLC6A6, Homo sapiens, UniProt P31641, Y138A); binding, microscale thermophoresis; 500 µM, room temperature, added: 50 nM labelled protein; higher = more binding).
With `O=c1cc(-c2ccccc2)nc2cc(-c3ccco3)[nH]n12` the kon was 19300 M⁻¹ s⁻¹ (Flavin reductase (NADPH) (BLVRB, Homo sapiens, UniProt P30043)).
The relaxed DNA of `Cc1nc(CSc2nc(SCc3ccc(C(C)C)cc3)nc(=O)[nH]2)cs1` is reported as 0.5% (DNA topoisomerase 2-alpha (TOP2A, Homo sapiens, UniProt P11388); DNA relaxation; 500 µM, replicate 1).
With `Nc1ncnc2c1ncn2[C@@H]1O[C@H](COP(=O)(O)OP(=O)(O)O)[C@@H](O)[C@H]1O` the Tm was 38.5 ± 0.3 °C (DNA mismatch repair protein MutL (mutL, Bacillus subtilis, UniProt P49850); differential scanning fluorimetry; pH 7.5, added: nucleotide 2 mM).
For `O=C(O)C1CCCNC1` (centres unmarked), “normalised MST signal” read 0.0669 (Sodium- and chloride-dependent taurine transporter (SLC6A6, Homo sapiens, UniProt P31641, G62A); binding, microscale thermophoresis; 1.95 µM, room temperature, added: 50 nM labelled protein; higher = more binding).
For `O=C(NC1CCC1)c1ccc2nc(-c3cccc(NS(=O)(=O)NCCN4CCCCC4)c3)cn2c1`, the remaining activity was 100% (Mast/stem cell growth factor receptor Kit (KIT, Homo sapiens, UniProt P10721, A829P); enzyme activity; 10 µM).
With `O=C(CCCCCCC(=O)Nc1ccccc1)NO` the binding stoichiometry was 0.9 (Histone deacetylase 8 (HDAC8, Homo sapiens, UniProt Q9BY41); ITC; Tris-HCl buffer; concentration not given, 288 K).
The current density of `Nc1ccc(C(=O)O)cc1` is reported as -6.43 pA/pF and -1.36 pA/pF and -3.82 pA/pF and -5.67 pA/pF and -5.38 pA/pF and -4.78 pA/pF and -1.65 pA/pF (BEST1, with wild-type BEST1 (Homo sapiens, UniProt O76090, A243T); whole-cell patch clamp; HEK293 co-expressing WT and A243T mutant; concentration not given, membrane potential -20 mV).
`c1ccc(C(NCc2cccnc2)(c2ccccc2)c2ccccc2)cc1` gave a Hill coefficient of 0.7 (Potassium voltage-gated channel subfamily KQT member 1 (KCNQ1, Homo sapiens, UniProt P51787); ion current, inhibitor, whole-cell patch clamp; tsA201; peak current, leak-subtracted).
For `Cc1cc(C)c2nc(C)cc(NCCc3ccccc3)c2c1`, “inward current density” read -4 ± 0.3 pA/pF (CatSper channel complex (Homo sapiens, UniProt Q7RTX7+Q86XQ3+Q8NEC5+Q96P56); ion current, whole-cell patch clamp; human sperm; 10 µM, at -80 mV).
`O=[N+]([O-])c1cc(C(F)(F)F)ccc1NCc1ccco1` has a TΔS of 1.04 ± 0.07 kcal/mol (Endothelial PAS domain-containing protein 1, PAS-B domain (EPAS1, Homo sapiens, UniProt Q99814, N288A); binding, ITC, reverse mode).
For `CCCCCCCCC(=O)c1cc(O)c(O)c(O)c1`, the activation was 1.14 fold (Nuclear receptor subfamily 5 group A member 2 (NR5A2, Homo sapiens, UniProt O00482); reporter gene, Gal4 hybrid reporter; 10 µM; baseline: vehicle).
`Nc1nc2c(ncn2[C@@H]2O[C@H](COP(=O)(O)O)[C@@H](O)[C@H]2O)c(=O)[nH]1` has a reaction velocity of 0.0496 µM/s and 0.0294 µM/s and 0.0446 µM/s (GUK1 (Homo sapiens, UniProt Q16774); enzyme activity, NADH-coupled; 31.25 µM, added: NaCl 150 mM).
For `Nc1ncnc2c1ncn2[C@@H]1O[C@H](COP(=O)(O)CP(=O)(O)OP(=O)(O)O)[C@@H](O)[C@H]1O`, the specific binding was 4010 corrected cpm and 2130 corrected cpm (P2X purinoceptor 1 (P2RX1, Homo sapiens, UniProt P51575, D97A); saturation binding; 25 nM).
For `Nc1nc2c(ncn2[C@H]2C[C@H](O)[C@@H](COP(=O)(O)OP(=O)(O)O)O2)c(=O)[nH]1`, “z-scored log2 fold change” read -0.639 (binding, equilibrium dialysis LC-MS; 5 µM, thermostabilized A2AR-BRIL construct; baseline: no-protein control, direction not given).
`O=C(O)CCc1nc2ncccn2n1` has a Kd of 110 µM (Ubiquitin carboxyl-terminal hydrolase 20, ZnF-UBD domain (USP20, Homo sapiens, UniProt Q9Y2K6)).
`COc1cc(O)c2c(c1)oc(=O)c1c3cc(O)c(O)cc3oc21` gave a β-Turn content of 20.3% (Alpha-glucosidase MAL12 (MAL12, Saccharomyces cerevisiae S288c, UniProt P53341); circular dichroism; molar ratio 1:2).
`CC(=O)N[C@H](C(=O)N1C[C@H](O)C[C@H]1C(=O)NCc1ccc(-c2scnc2C)cc1)C(C)(C)SCCCCCCNC(=O)C[C@@H]1N=C(c2ccc(Cl)cc2)c2c(sc(C)c2C)-n2c(C)nnc21` gave a binding stoichiometry of 0.701 ± 0.006 (Bromodomain-containing protein 3, BD2 (BRD3, Homo sapiens, UniProt Q15059); ITC; concentration not given, 25 °C, compound in cell, protein in syringe).
With `CCC(C)(NCCc1cccc(Cl)c1)c1cccc(NC2=CC(=O)N(C3CCC(=O)NC3=O)C2=O)c1` (centres unmarked) the Dmax was 32% (ZBTB11/CRBN; protein degradation, degrader, HiBiT luminescence; MOLT-4).
The protein adduct of `CCC1(O)CCCN(C(=O)c2ccc(-c3ccc(F)c(NC(=O)CCl)c3)cc2)C1` (centres unmarked) is reported as 8% (DNA dC->dU-editing enzyme APOBEC-3B, C-terminal domain (Homo sapiens, UniProt Q9UH17); covalent modifier, intact protein mass spectrometry, refers to: adduct +26104 Da; 250 µM, 3 h, 10-fold molar excess).
`C#Cc1cc(-c2cc(Nc3nc(N[C@@H](C)c4ccc(F)cn4)ncc3Cl)n[nH]2)ccc1C=O` gave an inhibition of 6.82% (Mast/stem cell growth factor receptor Kit (KIT, Homo sapiens, UniProt P10721, V559D); enzyme activity, inhibitor; 0.2 µM).
`CC[C@H](C)[C@@H]1NC(=O)[C@H](C)NC(=O)[C@H]([C@@H](C)CC)NC(=O)[C@H](CCC(N)=O)NC(=O)[C@H](C)NC(=O)[C@H](CCCNC(=N)N)NC(=O)[C@H](C(C)C)NC(=O)[C@H](CC(C)C)NC(=O)[C@H](CCC(=O)O)NC(=O)[C@H](CCCNC(=N)N)NC(=O)CNC(=O)[C@@H](NC(=O)[C@H](CC(C)C)NC(=O)[C@H](CCCCN)NC(=O)[C@@H](NC(=O)[C@@H](NC(=O)[C@H](CCC(=O)O)NC(=O)[C@H](CCC(=O)O)NC(=O)[C@H](CCSC)NC(=O)[C@H](Cc2c[nH]c3ccccc23)NC(=O)[C@H](CO)NC(=O)[C@@H](N)CC(=O)O)C(C)C)[C@@H](C)CC)CSSC[C@@H]2NC(=O)[C@@H](NC(=O)[C@H](CCCCN)NC(=O)[C@H](CC(N)=O)NC(=O)[C@H](C)NC(=O)[C@H](CC(C)C)NC(=O)[C@H](C)NC(=O)[C@H](CO)NC(=O)[C@H](Cc3ccc(O)cc3)NC(=O)[C@H](CC(C)C)NC(=O)[C@H](CCC(N)=O)NC(=O)c3ccc(-c4c5ccc(=[N+](C)C)cc-5oc5cc(N(C)C)ccc45)c(C(=O)[O-])c3)CSSC[C@H](NC(=O)CNC(=O)[C@H](C(C)C)NC(=O)[C@H](Cc3c[nH]cn3)NC2=O)C(=O)N[C@@H]([C@@H](C)O)C(=O)N[C@@H](CCCCN)C(=O)N[C@@H](CCCNC(=N)N)C(=O)N[C@@H](CO)C(=O)N[C@@H](CC(C)C)C(=O)N[C@@H](C)C(=O)N[C@@H](CCCNC(=N)N)C(=O)N[C@@H](Cc2ccccc2)C(=O)N[C@H](C(=O)O)CSSC[C@@H](C(=O)NCC(=O)N[C@@H](CCSC)C(=O)N[C@@H](CO)C(=O)N[C@H](C(=O)N[C@@H](Cc2c[nH]c3ccccc23)C(=O)N[C@@H](CO)C(=O)O)[C@@H](C)O)NC1=O` — result for “koff fast phase”: 0.00929 s⁻¹ (Relaxin receptor 1 (RXFP1, Homo sapiens, UniProt Q9HBX9, F76A/Y80A); dissociation, NanoBRET; infinite dilution).
`Oc1ccc(/C=C/c2cc(O)cc(O)c2)cc1` — result for “ΔG of binding”: -7.42 kcal/mol (O-methyltransferase (Sorghum bicolor, UniProt A0A1B6PFV1); concentration not given, added: MET+).
For `[2H]c1cc(C)c(NC(=O)c2cnc(Nc3cc(N4CCCCC4)nc(C)n3)s2)c(Cl)c1`, the inhibition was 30 to 90% (Mast/stem cell growth factor receptor Kit (KIT, Homo sapiens, UniProt P10721); 0.01 µM).
With `COc1ccc(CCC(C)N2CCc3cc(OC)c(OC)cc3C2)cc1` (centres unmarked) the selectivity ratio was 82 (Sigma intracellular receptor 2 (Tmem97, Rattus norvegicus, UniProt Q5U3Y7); binding; baseline: Ki sigma-1 over Ki sigma-2).
With `CN1CCC[C@H]1c1cccnc1` the koff was 1360 s⁻¹ (Chrnd/Chrna1/Chrne (Mus musculus, UniProt P02716+P04756+P20782, G173R)).
Under “log2 fold change”, `CCN1CCC[C@H]1CNC(=O)c1c(O)c(Cl)cc(Cl)c1OC` is recorded as 0.324 (Retinoic acid-induced protein 3 (GPRC5A, Homo sapiens, UniProt Q8NFJ5); β-arrestin recruitment, TANGO luminescence, refers to: GPRC5A; concentration not given; baseline: basal luminescence).
The current of `CCOc1ccc(NC(=O)O[C@H](Cn2nc(C(C)C)cc2C(C)C)C(C)C)cc1` is reported as 94 ± 6% (Neuronal acetylcholine receptor; alpha4/beta2, (α4)2(β2)3 stoichiometry (Homo sapiens, UniProt P17787+P43681); ACh-evoked current, two-electrode voltage clamp; 1 µM, high-sensitivity stoichiometry, added: ACh 10 µM; baseline: ACh alone).
The Dmax of `O=C1CCC(N2C(=O)C=C(Nc3cccc(C4(NCCc5ccc(C(F)(F)F)c(Cl)c5)CCCC4)c3)C2=O)C(=O)N1` (centres unmarked) is reported as 60% (ZBTB11/CRBN; protein degradation, degrader, HiBiT luminescence; MOLT-4).
`O=C(CO)[C@@H](O)[C@H](O)[C@H](O)[C@H](O)COP(=O)(O)O` — result for “z-scored log2 fold change”: 0.173 (binding, equilibrium dialysis LC-MS; 5 µM, thermostabilized A2AR-BRIL construct; baseline: no-protein control, direction not given).
`O=C(O)CCn1c(=O)oc2ccccc21` has a Kd of over 1000 µM (Ubiquitin carboxyl-terminal hydrolase 49, ZnF-UBD domain (USP49, Homo sapiens, UniProt Q70CQ1)).
For `CNCC(=O)O`, the remaining activity was 103% (Sodium- and chloride-dependent glycine transporter 2 (Homo sapiens, UniProt Q9Y345, S479G); glycine uptake, inhibitor, [3H]glycine uptake; 100 µM, S479G mutant, log concentration -1, added: [3H]glycine; baseline: no inhibitor).
`c1ccc(-c2n[nH]cc2-c2ccnc3ccccc23)nc1` — result for “log2 fold change”: 1.53 (Negative regulator of the PHO system (PHO85, Candida albicans, UniProt Q9HGY5); kinase binding, competitor, MIB/MS competition, refers to: PHO85; Candida albicans cell lysate; 10 µM; baseline: DMSO).
Under “mean decatenated DNA”, `O=c1nc(SCc2cc(F)cc(C(F)(F)F)c2)nc(SCc2csc3ccc(Cl)cc23)[nH]1` is recorded as 71.9% (DNA topoisomerase 2-beta (TOP2B, Homo sapiens, UniProt Q02880); decatenation; 7.8 µM).
`CC[C@@H]1[C@H](F)C(=O)N[C@@H]1COc1nccc2cc(C(N)=O)c(OC)cc12` has an inhibition of 8.5% (Interleukin-1 receptor-associated kinase 1 (IRAK1, Homo sapiens, UniProt P51617); ATP-site probe binding, ActivX profiling; THP-1 cell lysate; 0.04 mM, Lys2 site).

A few entries again:
For `Nc1ncnc2c1ncn2[C@@H]1O[C@H](COP(=O)(O)CP(=O)(O)OP(=O)(O)O)[C@@H](O)[C@H]1O`, the specific binding was 4010 corrected cpm and 2130 corrected cpm (P2X purinoceptor 1 (P2RX1, Homo sapiens, UniProt P51575, D97A); saturation binding; 25 nM).
For `Nc1nc2c(ncn2[C@H]2C[C@H](O)[C@@H](COP(=O)(O)OP(=O)(O)O)O2)c(=O)[nH]1`, “z-scored log2 fold change” read -0.639 (binding, equilibrium dialysis LC-MS; 5 µM, thermostabilized A2AR-BRIL construct; baseline: no-protein control, direction not given).
`O=C(O)CCc1nc2ncccn2n1` has a Kd of 110 µM (Ubiquitin carboxyl-terminal hydrolase 20, ZnF-UBD domain (USP20, Homo sapiens, UniProt Q9Y2K6)).
`COc1cc(O)c2c(c1)oc(=O)c1c3cc(O)c(O)cc3oc21` gave a β-Turn content of 20.3% (Alpha-glucosidase MAL12 (MAL12, Saccharomyces cerevisiae S288c, UniProt P53341); circular dichroism; molar ratio 1:2).
